Experimental data pooled from the literature.
Lines come from different studies, so protocols differ. Several values in a cell are separate wells, animals, samples, runs or records.
Chain of UniProt Q9UM07 (whole entry, looked up): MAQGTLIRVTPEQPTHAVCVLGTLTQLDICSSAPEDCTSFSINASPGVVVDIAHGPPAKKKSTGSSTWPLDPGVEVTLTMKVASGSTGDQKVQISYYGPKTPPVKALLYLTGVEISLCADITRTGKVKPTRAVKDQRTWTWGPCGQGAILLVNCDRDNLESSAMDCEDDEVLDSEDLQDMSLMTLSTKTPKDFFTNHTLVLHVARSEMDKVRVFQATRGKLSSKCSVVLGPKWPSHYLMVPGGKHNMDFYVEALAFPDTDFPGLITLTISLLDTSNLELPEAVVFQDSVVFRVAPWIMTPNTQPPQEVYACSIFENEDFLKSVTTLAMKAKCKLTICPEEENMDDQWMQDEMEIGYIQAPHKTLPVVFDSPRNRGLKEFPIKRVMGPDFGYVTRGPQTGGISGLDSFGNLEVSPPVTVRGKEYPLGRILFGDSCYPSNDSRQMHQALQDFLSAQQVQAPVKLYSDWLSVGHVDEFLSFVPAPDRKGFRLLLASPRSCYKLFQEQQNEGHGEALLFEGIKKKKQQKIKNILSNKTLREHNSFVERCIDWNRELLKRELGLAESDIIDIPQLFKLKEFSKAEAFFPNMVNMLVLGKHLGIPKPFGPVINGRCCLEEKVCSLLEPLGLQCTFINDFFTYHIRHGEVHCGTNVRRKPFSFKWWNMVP
Chain of UniProt P28074 (whole entry, looked up): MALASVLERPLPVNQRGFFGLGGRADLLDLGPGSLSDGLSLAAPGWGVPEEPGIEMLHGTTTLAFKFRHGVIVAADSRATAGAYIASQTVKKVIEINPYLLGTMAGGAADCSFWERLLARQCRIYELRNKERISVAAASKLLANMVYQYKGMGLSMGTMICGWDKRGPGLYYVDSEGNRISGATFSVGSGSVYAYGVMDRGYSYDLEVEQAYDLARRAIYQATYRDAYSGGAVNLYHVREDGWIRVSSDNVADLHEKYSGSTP
Chain of UniProt P28564 (whole entry, looked up): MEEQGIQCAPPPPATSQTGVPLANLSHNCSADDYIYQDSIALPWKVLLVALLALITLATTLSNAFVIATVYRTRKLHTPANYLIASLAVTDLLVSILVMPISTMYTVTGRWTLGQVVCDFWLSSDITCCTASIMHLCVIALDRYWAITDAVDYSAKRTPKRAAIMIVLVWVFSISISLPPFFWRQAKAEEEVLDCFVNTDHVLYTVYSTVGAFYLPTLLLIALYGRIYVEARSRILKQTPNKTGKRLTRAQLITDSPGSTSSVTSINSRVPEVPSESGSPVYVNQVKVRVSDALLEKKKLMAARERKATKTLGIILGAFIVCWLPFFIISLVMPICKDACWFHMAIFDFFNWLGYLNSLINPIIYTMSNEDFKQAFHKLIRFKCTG
Chain of UniProt P20618 (whole entry, looked up): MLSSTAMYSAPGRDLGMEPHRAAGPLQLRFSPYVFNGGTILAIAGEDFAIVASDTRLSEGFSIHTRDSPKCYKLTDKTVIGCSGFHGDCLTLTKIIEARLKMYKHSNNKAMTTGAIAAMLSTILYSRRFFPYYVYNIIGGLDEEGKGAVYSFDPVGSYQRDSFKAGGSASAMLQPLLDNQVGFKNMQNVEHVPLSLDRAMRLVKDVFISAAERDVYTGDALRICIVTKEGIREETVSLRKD
Chain of UniProt O60285 (whole entry, looked up): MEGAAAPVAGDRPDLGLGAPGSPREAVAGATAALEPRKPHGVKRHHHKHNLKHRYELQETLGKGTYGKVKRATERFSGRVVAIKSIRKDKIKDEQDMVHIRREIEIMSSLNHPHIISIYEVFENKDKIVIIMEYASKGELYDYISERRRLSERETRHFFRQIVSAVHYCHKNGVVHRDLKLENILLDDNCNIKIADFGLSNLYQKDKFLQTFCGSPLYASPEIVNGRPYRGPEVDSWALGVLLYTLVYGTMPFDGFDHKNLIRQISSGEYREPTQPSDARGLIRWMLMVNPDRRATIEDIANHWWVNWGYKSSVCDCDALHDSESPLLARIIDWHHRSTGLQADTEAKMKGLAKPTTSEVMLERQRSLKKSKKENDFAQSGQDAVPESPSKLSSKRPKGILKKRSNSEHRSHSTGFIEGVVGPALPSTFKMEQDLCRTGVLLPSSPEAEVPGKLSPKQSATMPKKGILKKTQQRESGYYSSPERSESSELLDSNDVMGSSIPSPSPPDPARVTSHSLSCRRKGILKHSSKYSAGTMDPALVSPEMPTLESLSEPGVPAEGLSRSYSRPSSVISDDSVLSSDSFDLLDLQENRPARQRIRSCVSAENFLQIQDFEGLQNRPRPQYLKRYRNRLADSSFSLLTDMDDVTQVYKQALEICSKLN
Chain of UniProt O15146 (whole entry, looked up): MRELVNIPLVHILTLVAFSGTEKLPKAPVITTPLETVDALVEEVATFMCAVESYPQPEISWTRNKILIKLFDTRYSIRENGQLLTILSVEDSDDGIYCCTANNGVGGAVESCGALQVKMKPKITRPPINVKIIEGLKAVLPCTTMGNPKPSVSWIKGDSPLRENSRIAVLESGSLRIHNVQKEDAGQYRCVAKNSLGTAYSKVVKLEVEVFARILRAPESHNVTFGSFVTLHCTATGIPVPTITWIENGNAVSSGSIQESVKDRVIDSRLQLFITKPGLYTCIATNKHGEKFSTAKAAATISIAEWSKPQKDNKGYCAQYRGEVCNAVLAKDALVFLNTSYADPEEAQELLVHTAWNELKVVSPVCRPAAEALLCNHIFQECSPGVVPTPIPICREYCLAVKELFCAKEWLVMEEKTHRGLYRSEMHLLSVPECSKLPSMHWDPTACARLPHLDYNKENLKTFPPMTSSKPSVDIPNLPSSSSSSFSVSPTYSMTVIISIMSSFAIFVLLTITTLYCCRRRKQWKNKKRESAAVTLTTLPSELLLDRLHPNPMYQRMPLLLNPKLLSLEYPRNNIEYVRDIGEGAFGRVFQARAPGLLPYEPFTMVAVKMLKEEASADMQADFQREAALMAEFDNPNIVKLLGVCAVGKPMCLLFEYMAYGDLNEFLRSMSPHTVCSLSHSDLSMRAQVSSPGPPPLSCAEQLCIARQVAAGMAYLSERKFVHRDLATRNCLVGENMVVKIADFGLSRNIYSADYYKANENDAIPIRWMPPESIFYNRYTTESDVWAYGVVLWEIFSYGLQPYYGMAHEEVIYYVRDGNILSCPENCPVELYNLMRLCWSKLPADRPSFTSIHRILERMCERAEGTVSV
Chain of UniProt Q96BR1 (whole entry, looked up): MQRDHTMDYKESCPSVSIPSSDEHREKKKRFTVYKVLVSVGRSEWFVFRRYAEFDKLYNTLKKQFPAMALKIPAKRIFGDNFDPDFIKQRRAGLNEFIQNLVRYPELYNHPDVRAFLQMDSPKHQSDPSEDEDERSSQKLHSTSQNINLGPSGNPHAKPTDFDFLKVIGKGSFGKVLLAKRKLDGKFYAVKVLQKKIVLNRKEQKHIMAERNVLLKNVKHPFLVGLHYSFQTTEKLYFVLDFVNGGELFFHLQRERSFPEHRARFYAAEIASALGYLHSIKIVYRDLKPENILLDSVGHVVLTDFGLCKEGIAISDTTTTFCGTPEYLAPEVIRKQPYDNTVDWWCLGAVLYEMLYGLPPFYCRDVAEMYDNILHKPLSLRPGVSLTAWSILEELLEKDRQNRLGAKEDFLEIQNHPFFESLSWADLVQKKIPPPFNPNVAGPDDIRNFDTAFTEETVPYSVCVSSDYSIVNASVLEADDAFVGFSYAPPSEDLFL
Chain of UniProt P25100 (whole entry, looked up): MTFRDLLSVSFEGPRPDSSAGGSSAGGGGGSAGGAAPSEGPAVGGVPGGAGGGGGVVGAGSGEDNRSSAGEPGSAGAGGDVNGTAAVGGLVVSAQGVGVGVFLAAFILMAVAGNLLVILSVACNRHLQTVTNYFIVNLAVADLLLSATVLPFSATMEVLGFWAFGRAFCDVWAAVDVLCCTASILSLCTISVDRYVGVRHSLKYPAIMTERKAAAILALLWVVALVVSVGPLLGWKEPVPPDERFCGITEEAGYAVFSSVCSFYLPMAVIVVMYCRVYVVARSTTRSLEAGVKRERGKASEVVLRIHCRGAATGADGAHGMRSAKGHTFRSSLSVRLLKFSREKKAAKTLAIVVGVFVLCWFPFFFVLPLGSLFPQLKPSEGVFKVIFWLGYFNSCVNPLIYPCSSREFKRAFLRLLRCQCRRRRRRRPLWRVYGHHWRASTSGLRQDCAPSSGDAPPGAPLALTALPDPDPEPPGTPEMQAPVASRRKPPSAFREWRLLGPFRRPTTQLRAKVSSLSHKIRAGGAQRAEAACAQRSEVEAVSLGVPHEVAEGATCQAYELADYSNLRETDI
Chain of UniProt O42275 (whole entry, looked up): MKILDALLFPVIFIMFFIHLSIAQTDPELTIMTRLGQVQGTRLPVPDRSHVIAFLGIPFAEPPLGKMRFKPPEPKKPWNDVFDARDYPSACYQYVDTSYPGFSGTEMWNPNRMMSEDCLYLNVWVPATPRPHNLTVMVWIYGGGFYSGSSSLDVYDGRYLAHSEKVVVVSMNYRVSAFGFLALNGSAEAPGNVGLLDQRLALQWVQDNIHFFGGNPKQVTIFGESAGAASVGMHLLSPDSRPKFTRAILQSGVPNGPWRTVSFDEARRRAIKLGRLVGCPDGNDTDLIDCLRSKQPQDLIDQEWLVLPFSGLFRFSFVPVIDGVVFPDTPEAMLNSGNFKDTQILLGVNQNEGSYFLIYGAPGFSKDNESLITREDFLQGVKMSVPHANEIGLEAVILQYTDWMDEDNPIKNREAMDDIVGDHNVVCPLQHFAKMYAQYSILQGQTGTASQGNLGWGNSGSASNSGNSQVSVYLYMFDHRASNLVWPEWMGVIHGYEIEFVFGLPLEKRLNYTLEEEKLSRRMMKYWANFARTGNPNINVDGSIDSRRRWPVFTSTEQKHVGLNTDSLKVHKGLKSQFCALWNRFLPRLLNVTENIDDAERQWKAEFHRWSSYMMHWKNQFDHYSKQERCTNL

Compound | target | assay | conditions | scale | quantity | value
CCCCN(C)c1c(C)nc2ccc(C(=O)N3CCC[C@@H](C(N)=O)C3)cn12 | Acetylcholinesterase (ache, Electrophorus electricus, UniProt O42275) | inhibitor | 5 µM |  | activity | active
CC(C)[C@H]1NC(=O)C[C@H]2/C=C/CCSSC[C@@H](NC1=O)C(=O)N[C@H](Cc1cccc3ccccc13)C(=O)NCC(=O)O2 | Tyrosine-protein kinase Fyn, isoform b (FYN, Homo sapiens, UniProt P06241) |  | 10 µM |  | inhibition | 2.3%
CS(C)(=O)=Nc1ccc(-c2ccc(-c3nc4cc(O[C@@H]5CO[C@H]6[C@@H]5OC[C@H]6O)[nH]c4cc3F)cc2)cc1 | Muscle, skeletal receptor tyrosine-protein kinase (MUSK, Homo sapiens, UniProt O15146) | enzyme activity, inhibitor | 10 µM |  | inhibition | -7%
O=C(O)c1ccc(-c2nc(-c3ccccc3Cl)c3sccn23)cc1 | BLVRA (Homo sapiens, UniProt P53004) | enzyme activity, inhibitor | 10 µM, with: biliverdin IXα 25 µM |  | remaining activity | 96%
CCOC(=O)[C@@H]1Cc2c(cc([N+](=O)[O-])cc2[N+](=O)[O-])[C@H](O)[C@]12C(=O)Nc1ccc(Br)cc12 | Receptor tyrosine-protein kinase erbB-2 (ERBB2, Homo sapiens, UniProt P04626) | binding, competition with immobilised ligand | 0.1 µM |  | remaining binding | 47%
CN1CCC[C@@H]1C(=O)N[C@@H](Cc1ccc(-c2ccccc2)cc1)B(O)O | Proteasome component C5/PSMB5 (Homo sapiens, UniProt P20618+P28074) | Ac-WLA-AMC cleavage | with: PA28αβ | baseline: Tris over HEPES buffer | IC50 ratio | 4.8
CN(C)[C@H]1C[C@@]23CC[C@@]4(O2)C(=CC[C@]2(C)[C@@H](c5ccc6ccncc6c5)CC[C@H]24)C=C3[C@@H](O)[C@@H]1O | Eukaryotic elongation factor 2 kinase (EEF2K, Homo sapiens, UniProt O00418) | ATP probe labelling, inhibitor, KiNativ profiling | 0.1 µM |  | inhibition | 14.7%
Cc1ccc(N2CC3CCC(C2)N3C)cc1C(=O)N[C@H](C)c1cc(-c2cnn(C)c2)nc2ccccc12 | Cathepsin B (CTSB, Homo sapiens, UniProt P07858) | enzyme activity | 30 µM |  | remaining activity | 111%
N[C@H](C(=O)N1CCCC1)C1CCN(c2nccc3c(-c4ncc(Cl)cc4Cl)cccc23)CC1 | Protein-arginine deiminase type-4 (PADI4, Homo sapiens, UniProt Q9UM07) | enzyme activity | 0.006291 µM, with: Ca2+ 0.25 mM |  | kcat | 0.845 s⁻¹ and 0.837 s⁻¹
O=C(N[C@@H]1c2ccccc2C[C@H]1N1CCCC1)c1ccc(-c2ccnc3[nH]ccc23)nc1 | NUAK family SNF1-like kinase 1 (NUAK1, Homo sapiens, UniProt O60285) | binding, competition with immobilised ligand | 3 µM |  | remaining binding | 0.8%
O=C1NC(=O)c2c1c1cc(F)c[n+]3c1c1c2c2cc(O)ccc2[n]1[Ru-4]312([N]=C=S)[S+]3CC[S+]1CC[S+]2CC3 (stereo not shown) | Serine/threonine-protein kinase Sgk3 (SGK3, Homo sapiens, UniProt Q96BR1) | enzyme activity | 100 nM, human enzyme, with: 10 µM ATP | baseline: untreated | remaining activity | 74%
CCCO[C@H]1[C@H](O)[C@@H](N)[C@@H](O[C@H]2[C@H](O[C@@H]3O[C@H](CO)[C@@H](O[C@H]4O[C@@H](CN)[C@@H](O)[C@H](O)[C@H]4N)[C@H]3O)[C@@H](O)[C@H](N)C[C@@H]2N)O[C@@H]1CO | 5-hydroxytryptamine receptor 1B (Htr1b, Rattus norvegicus, UniProt P28564) | radioligand binding | 10 µM, 1% DMSO |  | specific binding | -13%
C[C@H](NCc1ccc(-c2ccc(C(F)(F)F)cc2)cc1)C(N)=O | Alpha-1D adrenergic receptor (ADRA1D, Homo sapiens, UniProt P25100) | radioligand binding, SafetyScreen panel | 1 µM, species human, with: 0.60 nM [3H]Prazosin |  | inhibition | -3%

Some of these lines once more:
Compound | target | assay | conditions | scale | quantity | value
CS(C)(=O)=Nc1ccc(-c2ccc(-c3nc4cc(O[C@@H]5CO[C@H]6[C@@H]5OC[C@H]6O)[nH]c4cc3F)cc2)cc1 | Muscle, skeletal receptor tyrosine-protein kinase (MUSK, Homo sapiens, UniProt O15146) | enzyme activity, inhibitor | 10 µM |  | inhibition | -7%
CN(C)[C@H]1C[C@@]23CC[C@@]4(O2)C(=CC[C@]2(C)[C@@H](c5ccc6ccncc6c5)CC[C@H]24)C=C3[C@@H](O)[C@@H]1O | Eukaryotic elongation factor 2 kinase (EEF2K, Homo sapiens, UniProt O00418) | ATP probe labelling, inhibitor, KiNativ profiling | 0.1 µM |  | inhibition | 14.7%
